Measured values gathered from unrelated publications.
Each numbered part is a random draw from the data of one study; scales do not carry over between parts. Values joined by “and” are separate records of one study, mostly repeats; a detail may differ.

Sample 1
Target: RING finger protein unkempt homolog, zinc fingers 1-6, GST-SBP tag (UNK, Homo sapiens, UniProt Q9C0B0, residues 30-357)
Chain of UniProt Q9C0B0 (30-357, looked up): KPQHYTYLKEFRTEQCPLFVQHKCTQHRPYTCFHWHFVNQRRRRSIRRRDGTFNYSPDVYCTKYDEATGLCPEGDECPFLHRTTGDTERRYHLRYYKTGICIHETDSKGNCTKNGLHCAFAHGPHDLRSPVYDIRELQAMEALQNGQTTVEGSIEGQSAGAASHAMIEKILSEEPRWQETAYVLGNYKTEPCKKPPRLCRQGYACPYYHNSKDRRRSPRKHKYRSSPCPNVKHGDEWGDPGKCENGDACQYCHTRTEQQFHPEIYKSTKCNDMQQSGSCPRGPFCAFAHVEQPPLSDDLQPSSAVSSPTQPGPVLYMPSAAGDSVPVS
Technique: RNA Bind-n-Seq
Form: RNA
Sample: in vitro
Tested at: not given
Notes: RNA with constant flanks, human and mouse sites, ends assumed
Baseline: input RNA pool
Direction: higher = stronger binding
All sequences stand within: GGGAGUUCUACAGUCCGACGAUC … CAACAGAGGAUUGAGCAUCA
For `UUGAAAUCUCUACGAGAACUGAAUGUCAGAAGAAAUUACCUUAAAGUUUUACCACAAGAACUAGUAGAUCUUUCCUUGGUAAAGUUUGACUUUUCCUGCAACAAAGUGCUCGUGAUUCCA`, the bound/input enrichment was 0.101 ratio.
For `CAAUCAGGUUUUUACUACAAAACCAGAAUACCAAAGUUUGGGAGAGAUUUCUCUUACCACUAUCCAUCCUGUGACUUGUACUUUGUUGGUGCAAGUUCUGAAGUUUAUAGGUUAAACUUA`, the bound/input enrichment was 0.178 ratio.
`CUCCCGCCCGAACCGUAGCCGCGACCCGCAGUCUCGCCCGCUCAGCGGCCUGAGGCGCGUCGCUUUCUCGUGUCCCCUCGUCGGGCCUAAUCGCCGCUCCUGCCCGGCCCGCCGGCCCAC` gave a bound/input enrichment of 0.347 ratio.
`AUUGCUUCCUGGUAGUGUGGAAGAAACACAAGACCCUCAUUCCCAUUUCCAUUUCCAUUGUAGUCAAAGGUAUUGGCUUAGGUUUCUCCCGUGCUCCUUUCAUCCCCUCCCUGCCUGAGC` has a bound/input enrichment of 0.83 ratio.
`GAAUUCUCACUCUCUGAUCUGAGCCAAGAACAUUUAACAAGCAACGAAGAAAUCUUGGGUUCCGCCGAAGAGAAGGACUGCGAGGAGGCUCGGGGGAUGGAAACGCGGGCGAGUCCGCGG` gave a bound/input enrichment of 0.159 ratio.
With `GAGGCCCUGAAGAUCUUCCAGAAAAUAAAGGAUGAAAAGAGCCCAGAGUGGUCCAAAUUUUUAGGAUUGAUCAAAAAAUUUGUCACUGAUUCCAAUGCAGUGGUUCAAUUGAAAGGAUUA` the bound/input enrichment was 0.354 ratio.
`UCCGAUAUGGACUACAUUCAGACAGACGCUAUCAUCAAUUAUGGAAAUUCCGGAGGCCCGUUAGUAAACCUGGAUGGCGAGGUGAUUGGGAUUAACACCUUGAAGGUGACGGCGGGCAUC` has a bound/input enrichment of 0.317 ratio.

Sample 2
Target: Ras GTPase-activating protein-binding protein 1, C-terminal RGG region (G3BP1, Homo sapiens, UniProt Q13283)
Chain of UniProt Q13283 (whole entry, looked up): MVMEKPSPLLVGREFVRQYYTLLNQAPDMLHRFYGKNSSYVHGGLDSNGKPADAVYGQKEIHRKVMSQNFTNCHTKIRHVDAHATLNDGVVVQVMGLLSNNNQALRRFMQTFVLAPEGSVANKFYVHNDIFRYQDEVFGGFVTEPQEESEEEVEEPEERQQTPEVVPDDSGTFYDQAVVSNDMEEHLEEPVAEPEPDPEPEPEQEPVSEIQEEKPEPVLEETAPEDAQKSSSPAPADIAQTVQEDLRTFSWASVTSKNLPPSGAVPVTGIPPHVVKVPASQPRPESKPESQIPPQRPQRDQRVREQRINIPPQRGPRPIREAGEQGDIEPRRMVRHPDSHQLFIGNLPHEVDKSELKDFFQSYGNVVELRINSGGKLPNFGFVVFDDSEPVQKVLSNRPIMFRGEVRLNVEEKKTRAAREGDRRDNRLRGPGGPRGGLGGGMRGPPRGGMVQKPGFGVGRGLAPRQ
Technique: RNA Bind-n-Seq
Form: RNA
Sample: in vitro
Tested at: 1 µM
Notes: whole 134-nt RNA, ends assumed
Together with: 150 mM KCl
Baseline: input library
Direction: higher = stronger binding
All sequences stand within: GGGAGUUCUACAGUCCGACGAUC … UGGAAUUCUCGGGUGUCAAGG
`AAGUCCUGUGCUACACAUCGUAUGUACCGAAUCGGGUUUUUGGGAAAGGGUUUGGGAAAGUAUUAUGUUACGCCGUUCGGAUCUGCACUU` has a log2 enrichment of 1.2.
`UGGCCCUGGUGGCAUGCGGGGAGGAAGAGGUGGCCUCAUGGAUCGUGGUGGUCCCGGUGGAAUGUUCAGAGGUGGCCGUGGUGGAGGCAG` gave a log2 enrichment of 3.1.
`CUCAAGUCCUGUGCUACACAUCGUAUGUACCGAAUCGGGUUUGGGAGGGUGGGAAAGUAUUAUGUUACGCCGUUCGGAUCUGCACUUCCA` gave a log2 enrichment of 2.21.
`CUCAAGUCCUGUGCUACACAUCGUAUGUACCGAAUCGGUUUUUGGUGGUUUGGAAAGUAUUAUGUUACGCCGUUCGGAUCUGCACUUCCA` gave a log2 enrichment of -1.27.
`GCAGGAAGUAAAAACAAAUGGAAAUGCAUCGGAUAGUGGCAGGGGUGGGGGUUGCUAAGGAAAGGGUGGGAUGGGAGUGGGUAAAGAGUU` gave a log2 enrichment of 2.23.
The log2 enrichment of `GUCCUGUGCUACACAUCGUAUGUACCGAAUCGGGGCCCCGGGGCCCCGGGGCCCCGGGAAAGUAUUAUGUUACGCCGUUCGGAUCUGCAC` is reported as -0.0252.
With `ACCAUGCAGGUGGGCAUCUUUGGGAAGUGGGGCAAGGGGGGGAGAGGGAGGGGGGUAACACUUUGGGAACAGGUGGUCCCAGGUCGUUUC` the log2 enrichment was 2.64.
For `UGUGCUACACAUCGUAUGUACCGAAUCGGGGUUUUUUUGGGGUUUUUUUGGGUUUUUUUGGGAAAGUAUUAUGUUACGCCGUUCGGAUCU`, the log2 enrichment was -0.835.
`UCCUGUGCUACACAUCGUAUGUACCGAAUCGGGGUUUUUGGGUUUUUGGGGUUUUUGGGAAAGUAUUAUGUUACGCCGUUCGGAUCUGCA` has a log2 enrichment of -0.0586.
With `GGGUCUGUUGCAAAUAAAUUCUAUGUUCACAAUGAUAUCUUCAGAUACCAAGAUGAGGUCUUUGGUGGGUUUGUCACUGAGCCUCAGGAG` the log2 enrichment was -1.59.
The log2 enrichment of `UGGCCUUAUCACUCCUGGAGGCUUUUCAUCAGUGCCUGCUGGAAUGGAGACCCCUGAACUCAUUGAGCUGAGGAAGAAGAAGAUUGAGGA` is reported as -2.18.

Sample 3
Target: Histone acetyltransferase KAT6A, both winged helices, GST fusion (KAT6A, Homo sapiens, UniProt Q92794, residues 1-181)
Technique: protein binding microarray
Form: double-stranded DNA, one strand shown
Sample: in vitro
Tested at: not given
Notes: 8-mer, flanks averaged, mean of 2 arrays, mostly near background
Baseline: not given
Direction: higher = stronger binding
Target sequence (chain): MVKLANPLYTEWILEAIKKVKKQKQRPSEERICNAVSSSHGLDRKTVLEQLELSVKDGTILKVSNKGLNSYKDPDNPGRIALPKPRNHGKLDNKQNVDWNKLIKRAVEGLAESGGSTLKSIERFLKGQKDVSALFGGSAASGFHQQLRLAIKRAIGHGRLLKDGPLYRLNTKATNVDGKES
The E-score of `AAAGATCG` is reported as -0.0313.
`ACAGGCTG` has an E-score of -0.122.
With `ATTTCAAA` the E-score was -0.123.
`GGACAGAA` has an E-score of 0.0169.
The E-score of `CGTTAGTA` is reported as -0.0276.
`GAAAGTCC` gave an E-score of -0.0323.
`ATTTCATA` has an E-score of -0.0757.
For `GAACGGGA`, the E-score was 0.172.
For `AACGCCAG`, the E-score was -0.0683.
`ACAGCCAA` gave an E-score of -0.117.
For `AGGTACCA`, the E-score was -0.196.
With `CACATACG` the E-score was 0.0731.

Other studies, line by line
With `PhoQ, residues 284 288 289 292 302 303 GANMMA` the fold induction was 5.51 and 10.6 (PhoP, residues 12 14 15 18 19 LWHSL (Escherichia coli, UniProt P23836); Sort-seq, refers to: YFP reporter; E. coli; PhoQ-PhoP variant library, together with: 10 µM Mg2+; baseline: high Mg2+ state, higher = stronger signaling).

Some of these lines once more (sample 3):
With `ATTTCAAA` the E-score was -0.123.
`GGACAGAA` has an E-score of 0.0169.
